# Experimental data of several laboratories.
# Every numbered part comes from another study and shows a few of its results, in no order.

# Sample 1
# Target: Ras GTPase-activating protein-binding protein 1, C-terminal RGG region (G3BP1, Homo sapiens, UniProt Q13283)
# Chain of UniProt Q13283 (whole entry, looked up): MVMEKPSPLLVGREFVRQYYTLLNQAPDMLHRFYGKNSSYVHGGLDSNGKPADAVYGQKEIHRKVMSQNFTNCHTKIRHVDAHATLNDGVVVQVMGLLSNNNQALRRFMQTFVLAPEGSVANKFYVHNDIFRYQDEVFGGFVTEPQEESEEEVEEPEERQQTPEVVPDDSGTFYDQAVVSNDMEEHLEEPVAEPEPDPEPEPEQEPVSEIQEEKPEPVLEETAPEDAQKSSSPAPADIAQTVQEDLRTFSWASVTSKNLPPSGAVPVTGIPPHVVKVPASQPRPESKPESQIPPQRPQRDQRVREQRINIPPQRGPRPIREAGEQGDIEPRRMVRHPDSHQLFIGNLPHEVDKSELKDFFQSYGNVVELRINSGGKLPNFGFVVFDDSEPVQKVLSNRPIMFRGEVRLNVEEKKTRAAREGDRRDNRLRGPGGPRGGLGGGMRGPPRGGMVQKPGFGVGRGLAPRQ
# Technique: RNA Bind-n-Seq
# Form: RNA
# Matrix: in vitro
# Concentration: 1 µM
# Notes: whole 134-nt RNA, ends assumed
# With: 150 mM KCl
# Reference: input library
# Reading: higher = stronger binding
# All sequences stand within: GGGAGUUCUACAGUCCGACGAUC … UGGAAUUCUCGGGUGUCAAGG
Sequence,log2 enrichment
CAAGUCCUGUGCUACACAUCGUAUGUACCGAAUCGGGAAAGGGUUUUUGGGUGGGAAAGUAUUAUGUUACGCCGUUCGGAUCUGCACUUC,1.04
UGGGAGGUGGAUUUUGUUUAUUUUUUUAGCUCAUUUCCAGGGGUGAGAAUUUUUUUUUAAUAUGUGUCAUGAAUAAAGUUGUUUUUGAAA,2.69
CACAGACAACACGCACCCACACAGACACAGAGGGAAGGGGUUGGGAUGGGGACAGGGUGCACGGCAGGGCGGGGUAGGACCCCAGCCCCU,-0.499
CUGUGCUACACAUCGUAUGUACCGAAUCGGGUUUUUUUGGGGUUUUUUUGGGGUUUUUUUGGAAAGUAUUAUGUUACGCCGUUCGGAUCU,-0.825
AAGUCCUGUGCUACACAUCGUAUGUACCGAAUCGGGCCCCGGGCCCCGGGGCCCCGGAAAGUAUUAUGUUACGCCGUUCGGAUCUGCACU,-1.55
ACCACGCAGGUGGGCAUCUUUGGGAAGUGGGGCAAGGGGGGGAUAGGGAGGGGGGUAACACUUUGGGAACAGGUGGUCCCAGGUCGUUUC,-1.01
UUUGGAGAAGGAACCCCACUCUCCAGCUGACCAGCCUGAACAACAGGCAGAAUCCACUUUGACAUCAGCUGAGACUAGGGGAAGCAAGAA,-1.5
CAAGUCCUGUGCUACACAUCGUAUGUACCGAAUCGGAAAGGGGAAAGGAAAGGGGAAAGUAUUAUGUUACGCCGUUCGGAUCUGCACUUC,-0.827
UAACUUUAGAGGAGGAUCUGAUGGAUUUGGCAGUGGACGUGGAUUUGGGGAUGGCUAUAAUGGGUAUGGAGGAGGACCUGGAGGUGGCAA,-1.41
UAGGAAAACCGUCUUCAGAUACAGUCCCUAAGCCCAAGAGAGCCCCAAAACAGAAGAAAGUAGUAGAGGCUGUAAACUCUGACUCGGAUU,-0.626
UCAAGUCCUGUGCUACACAUCGUAUGUACCGAAUCGUGUGUGUGUGUGUGUGUGUAAAGUAUUAUGUUACGCCGUUCGGAUCUGCACUUC,0.958
UGGCCCUGGUGGCAUGCGGGGAGGAAGAGGUGGCCUCAUGGAUCGUGGUGGUCCCGGUGGAAUGUUCAGAGGUGGCCGUGGUGGAGAGAG,3.77
CUCAAGUCCUGUGCUACACAUCGUAUGUACCGAAUCGGCCCGGCCCGGCCCGGGAAAGUAUUAUGUUACGCCGUUCGGAUCUGCACUUCC,-1.54
UGGCCCUGGUGGCAUGCGGGGAGGAAGAGGUGGCCUCAUGGAUCGUGGUGGUCCCGGUGGAAUGUUCAGAGUUGGCCGUGGUGGAGACAG,3.39

# Sample 2
# Target: PABPC1L2, full length, GST fusion (mouse, UniProt A0ABA7IW68)
# Technique: RNAcompete
# Form: RNA
# Matrix: in vitro
# Concentration: 20 nM
# Notes: 7-mer, probes averaged, single round
# Reference: mean of 7-mers
# Reading: higher = stronger binding
# Residues (chain): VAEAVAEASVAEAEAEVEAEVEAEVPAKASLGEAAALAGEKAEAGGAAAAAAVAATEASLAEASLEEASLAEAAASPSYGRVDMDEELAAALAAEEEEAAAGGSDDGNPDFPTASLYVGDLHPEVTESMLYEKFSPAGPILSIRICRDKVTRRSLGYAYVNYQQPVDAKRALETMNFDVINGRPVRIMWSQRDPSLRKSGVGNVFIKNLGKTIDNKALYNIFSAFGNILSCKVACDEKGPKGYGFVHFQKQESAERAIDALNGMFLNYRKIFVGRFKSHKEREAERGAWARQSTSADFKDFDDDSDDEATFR
Sequence,7-mer Z-score
UUGAGUA,-0.0881
CCAAAGC,-0.13
AGCUUUG,-0.383
UACUAGC,-0.224
UCCGUAC,-0.371
CCGGUAC,-0.248
GAGACAA,0.457
AGGAAAU,0.274
UUCGUAA,-0.34
GAAAAGA,3.93
UUCCGCU,-0.463
AAGGAGC,0.327
CCGGCCA,-0.367
ACUAGGA,0.104
CGAAACU,-0.142
ACGAUCG,-0.119
GUGGUAC,0.000733
AAUGUAC,-0.0663
GUCCAUA,-0.161
UCUCCGG,-0.405
ACUACGC,-0.208
GGCGAGC,0.258
CGCCGGU,-0.402

# Sample 3
# Target: Sal-like protein 4, full length isoform B (SALL4, Homo sapiens, UniProt Q9UJQ4-2, residues 1-616)
# Technique: universal PBM
# Form: double-stranded DNA, one strand shown
# Matrix: in vitro
# Concentration: not given
# Notes: 8-mer, flanks averaged, mean of replicates
# Reading: higher = stronger binding
Sequence,E-score
AACACGGT,-0.118
ATAGGGTG,-0.0203
CATGGTGG,-0.272
ACTCGCTC,-0.18
GCCTTAAC,-0.138
ACTGCGAG,-0.161
AGTCCCCC,-0.302
GAAATGCA,0.0372
GCGCAGAC,-0.162
ATGGTAGG,-0.0401
CTTCGGGC,-0.209
ACGTCCAT,0.0529
TAACCCGA,-0.0722
ATGGTAAT,0.332
CCGTCGTA,-0.00501
CAATGCTA,0.172
ATGAACCA,0.211
CTGTTAGC,-0.162
CGCTTCTA,-0.00696
ACTCGCTG,-0.215
CAACGGGG,-0.25
GAAGTAAA,0.166
ATTGAACC,0.0668
GATTATGC,0.0582
AGGAACGA,-0.115

# Sample 4
# Target: RNA binding protein fox-1 homolog 2, RRM domain, GST-SBP tag (RBFOX2, Homo sapiens, UniProt O43251-10, residues 100-194)
# Technique: RNA Bind-n-Seq
# Form: RNA
# Matrix: in vitro
# Concentration: 365 nM
# Notes: natural RNA segment, single round, ends assumed
# Reference: no-protein control
# Reading: higher = stronger binding
# All sequences stand within: GGGAGUUCUACAGUCCGACGAUC … UGGAAUUCUCGGGUGCCAA
# Target sequence (chain): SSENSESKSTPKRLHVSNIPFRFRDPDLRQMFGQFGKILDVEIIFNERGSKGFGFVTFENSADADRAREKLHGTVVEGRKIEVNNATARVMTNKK
Sequence,RBNS enrichment (R)
GAAAACAAACUGGAAACUUGUUUCUUUUUUUGUAUAAAUGAGAGAUUGCAAAUGUAGUGUAUCACUGAGUCAUUUGCAGUGUUUUCUGCCACAGACCUUUGGGCUGCCUU,0.234
CAUUCCUUUAUGGGAGCGUCUGCGCCUGGGCUGAGUGUGGGGGAUACACAGAUGUUCUAUCUAGAACAUUUCCAUUGCAACAGCUAAGUUUGUGUUUCGUGGUUUUUUUA,0.503
UUUGCGUGACUUUGUUCUUCCUUUACUACUCUGUAUGUAAUAUAUAUACAUAUAUACGUACAUAUGCUGUCCAAAUAUAUUUGUAUAUAUUUGUAUAGCAUUUUUACACC,0.241
GGGACCAUAUUUCACAGAGCAAUGGAAAAGCUCCCUCUCCCCAACCCUCCUGCUCUGAGAGAAGAAAUCGAACUGAGGCUUCUUCUCUGGAGGUAAGGUUGCUGGUGGCC,0.323
GUAGUCCUAGCUACUCAGGAGGCUGAGGUGGAGGAUCACUUAAGCCUGAGAGGUCAAGGUUGCAAUGAGCCAUAAUCAUACCACUGCACUCCAGCCUGGGCAACAGAGUG,0.247
GGGCAGCGAGGGAAGGAGGGAGGAGGCAUCUUCCCUGAAGCCCCCAAACUGGACCCCUUCUUCAGACCCCCACAAACACCCCAGCUUUCUGGCUUUUCUGAGGGCUAGGG,0.154
AUAAACAUUAGUGUAUUUAUUUCCUAUGUGUUAAUAUGAAGAUCAGAAAUUAUUUUUUGCACUUUGGCAUAAAUACUUUUCAAUAUCUGAUUUGUUCUCUGGAUAAAUUA,0.364
GAGGGCCCAGCAAGGUAAUUUAUGGUUGAGCUGAUGUCAAUUGGUUCUUGUCUUGAGUCGACUCAAUUUAGCCCAAGUGCUGAAACAAGAAAUGUCAUUUUUUUCAUCAA,0.437
CUGAACCUCCUGUACAUGUGUUCAUGUUCCCAGCCAGCUCUGAGACCCAGGAACCAAAUAUUCCAUUUUGGCUUCUGCUAGAGCAGUCAUGGUUCCUCUCCUAAAAGCCA,0.348
UCUUUAGCAUAAAUGCAUUCAUUCUUUAAUAAAAAUAUGUUUGCAUUAAUAAAGCUGAGGAGUUUCAACUUUGUGUCUGUCCUUUUUCAAGUAAUAAAAACAUGAAGAAC,0.317
CCACGUAACUGGCUGCAGAGAAAUCUACCGAGCAAGGAAAAGGCACACACACACGUUUGCAGGGGUGUCUCGGUUUGCAUUUCUGUUGGAAUGAUCCGAACUGGACUCAC,0.685
GUCAGUGAAUCUGCUUGCCUUUCCUGAAAGUUUCUGGGGCUUAAGAUUCCAGACUCUGAUUCAUUAAACUAUAGUCACCCGUGUCCUGUGAUUUUAGUUUUCAUUUGUGU,0.789

# Sample 5
# Target: Phosphate system positive regulatory protein PHO4, full length, GST-tagged (PHO4, Saccharomyces cerevisiae, UniProt P07270, residues 1-312)
# Technique: competition protein-binding microarray
# Form: double-stranded DNA, one strand shown
# Matrix: in vitro
# Concentration: 2 µM
# Notes: whole 60-bp probe, lowest competitor level
# With: Cbf1 competitor, 0.05 µM
# Reading: higher = stronger binding
# All sequences stand within: … GTCTTGATTCGCTTGACGCTGCTG
# Residues (chain): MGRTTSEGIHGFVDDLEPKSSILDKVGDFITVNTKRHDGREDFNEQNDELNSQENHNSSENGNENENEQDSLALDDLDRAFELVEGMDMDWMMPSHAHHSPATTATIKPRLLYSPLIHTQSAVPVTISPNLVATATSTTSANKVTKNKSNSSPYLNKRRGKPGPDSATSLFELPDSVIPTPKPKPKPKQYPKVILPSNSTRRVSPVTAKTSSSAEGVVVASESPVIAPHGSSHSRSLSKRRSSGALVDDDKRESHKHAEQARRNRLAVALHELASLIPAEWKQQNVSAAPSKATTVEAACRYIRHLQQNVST
Sequence,fluorescence intensity [a.u.]
AGAAATGAGTGGAAGCGCGTGGAAGCCCGTCTAGCA,8270
AAATCATCTCTTTGTCACGTGACTCGAACCTAGCGG,12800
CCAAAGCCGCCTGAACGCGTGTTTTTGCTGTTGTTT,8950
ATTTCGCAAGGAGCGGGCGTGCGATGTTAACGTCAA,8420
GTCTTGTCTCATTGGGTCGTGGGTGTCCCCACTTCA,7810
ATTACCAAACGCTGTCATGTGTAGCCACTCTAGAAG,6820
CGTCCTAGTGATTGTCACGTGACTTCCATGAGGAAG,11300
GTCTTGTCTCATTGGGCAGTGGGTGTCCCCACTTCA,4280
TTCCGCAGGTTTATCAACGTGTTTCACTTATATCGG,12200
AAAGCGGTAATTTGTCACCGTACTTCACATATCTAT,3360
CTTTCCCGATCTTGAGGAGTGGGTGTAGCACATTTG,4620
GTCGTATTATCGAGTCACGTGCTTTATTCCATGGCG,15600
TACGAAAAACAGAGAAACGTGTCGGTAGCATCCGAT,11900
CTTCTGTAAATTTGCGCTGTGGGTGGACGCGCCCCG,4540
CTTTCCCGATCTTTTCACGTGGCGTTAGCACATTTG,14900
CTTCTGTAAATTTGTGCCGTGGGTGGACGCGCCCCG,5240
CAGTGGGATGATCTACTCGTGTGGAAGACATGTCGA,6870
AGCATTGGATCTCTAAATTAAATGCGTTAAACAGGG,3890
GCGCAATATGCAGGTACCGTGCCGACTGATTCCCTT,5280

# Excerpt of the above (sample 2):
Sequence,7-mer Z-score
UACUAGC,-0.224
UCCGUAC,-0.371
CCGGUAC,-0.248
GAGACAA,0.457
AGGAAAU,0.274
UUCGUAA,-0.34
GAAAAGA,3.93
UUCCGCU,-0.463
AAGGAGC,0.327
CCGGCCA,-0.367
ACUAGGA,0.104
CGAAACU,-0.142
ACGAUCG,-0.119
GUGGUAC,0.000733
AAUGUAC,-0.0663
